Assay results collected from several papers.
Protocols differ between the studies behind these lines. ± marks the error that the study gave.
B1: rv1218c (Mycobacterium tuberculosis, UniProt O86311); chain MSADNHQVPIEIRGLTKHFGSVRALDGLDLTVREGEVHGFLGPNGAGKSTTLRILLGLVKADGGSVRLLGGDPWTDAVDLHRHIAYVPGDVTLWPSLTGGETIDLLARMRGGIDNARRAELIERFGLDPTKKARTYSKGNRQKVSLISALSSHATLLLLDEPSSGLDPLMENVFQQCIGEARQRGVTVLLSSHILAETEALCEKVTIIRAGKTVESGSLDALRHLSRTSIKAEMIGDPGDLSQIKGVEDISIEGTTVRAQVDSESLRELIQVLGHAGVRSLVSQPPTLEELFLRHYSLGPEVAAEQQVATP
B2: protein 16-102 K79A/R82A/R83A (Mycobacterium tuberculosis, UniProt P96276); chain EVADGLTRREHDILAFERQWWKFAGVKEEAIKELFSMSATRYYQVLNALVDRPEALAADPMLVARLAALRASRQKARAARRLGFEVT
B3: uvrD1 1-725 (Mycobacterium tuberculosis, UniProt P9WMQ1); chain MSVHATDAKPPGPSPADQLLDGLNPQQRQAVVHEGSPLLIVAGAGSGKTAVLTRRIAYLMAARGVGVGQILAITFTNKAAAEMRERVVGLVGEKARYMWVSTFHSTCVRILRNQAALIEGLNSNFSIYDADDSRRLLQMVGRDLGLDIKRYSPRLLANAISNLKNELIDPHQALAGLTEDSDDLARAVASVYDEYQRRLRAANALDFDDLIGETVAVLQAFPQIAQYYRRRFRHVLVDEYQDTNHAQYVLVRELVGRDSNDGIPPGELCVVGDADQSIYAFRGATIRNIEDFERDYPDTRTILLEQNYRSTQNILSAANSVIARNAGRREKRLWTDAGAGELIVGYVADNEHDEARFVAEEIDALAEGSEITYNDVAVFYRTNNSSRSLEEVLIRAGIPYKVVGGVRFYERKEIRDIVAYLRVLDNPGDAVSLRRILNTPRRGIGDRAEACVAVYAENTGVGFGDALVAAAQGKVPMLNTRAEKAIAGFVEMFDELRGRLDDDLGELVEAVLERTGYRRELEASTDPQELARLDNLNELVSVAHEFSTDRENAAALGPDDEDVPDTGVLADFLERVSLVADADEIPEHGAGVVTLMTLHTAKGLEFPVVFVTGWEDGMFPHMRALDNPTELSEERRLAYVGITRARQRLYVSRAIVRSSWGQPMLNPESRFLREIPQELIDWRRTAPKPSFSAPVSGAGRFGSARPSPTRSGASRRPLLVLQVGD

HN ectodomain, N-glycosylated, disulfide-linked dimer (parainfluenza virus 5)
subunits per oligomer (itself; negative-stain EM): 4

B1 (rv1218c)
binding (Rv1217c (Mycobacterium tuberculosis, UniProt O05318); cryo-EM): binds

main protease C145A (SARS-CoV-2)
dimer fraction (itself; native MS; 5 µM, apo): 100%

HA/foldon ectodomain with foldon (influenza B virus)
subunits per oligomer (itself; SEC): > 9 HA monomers

B2 (protein 16-102 K79A/R82A/R83A)
binding (itself; cross-linking): binds

Mrc1 (Mus musculus, UniProt Q61830)
Kd (S full length trimer R683A/R685A (SARS-CoV-2); ELISA): 0.000317 µM

main protease S10C (SARS-CoV-2)
dimer fraction (itself; native MS; 5 µM, apo): 12 ± 1%

nsp5 mature L141R (SARS-CoV-2)
subunits per oligomer (itself; native MS): 2

main protease S147N (SARS-CoV-2)
dimer fraction (itself; native MS; 5 µM, apo): 8 ± 1%

3CLpro G11S (SARS-CoV-2)
Kd (itself; steady-state kinetics): 10 µM

B3 (uvrD1 1-725)
binding (itself; AUC): binds

pdtaS H67A (Mycobacterium tuberculosis)
Kd (itself; MST): 8.78 µM

MLEPFQILSISSFILSALHFMAWTIGALNQIKR (BM2 transmembrane domain H27A (Influenza B virus))
pKa (solid-state NMR, item: His19; peptide, VM+ membrane pellets; membrane-bound tetramer, no drug, fourth protonation): 7.8

pdtaS C57A (Mycobacterium tuberculosis)
Kd (itself; MST): 0.608 µM

nsp9 mature N96D (SARS-CoV-2)
subunits per oligomer (itself; SEC): 2

HA ectodomain HA2 E47K (influenza A H1N1 A/California/04/2009)
subunits per oligomer (itself; cryo-EM): 3

Some of these lines once more:
3CLpro G11S (SARS-CoV-2)
Kd (itself; steady-state kinetics): 10 µM

B1 (rv1218c)
binding (Rv1217c (Mycobacterium tuberculosis, UniProt O05318); cryo-EM): binds
